Results from different studies.
Each line is one published result; not all experiments were run side by side. ± gives the spread as reported.
MAPK14: Mitogen-activated protein kinase 14 (MAPK14, Homo sapiens, UniProt Q16539)
Chain of UniProt Q16539 (whole entry, looked up): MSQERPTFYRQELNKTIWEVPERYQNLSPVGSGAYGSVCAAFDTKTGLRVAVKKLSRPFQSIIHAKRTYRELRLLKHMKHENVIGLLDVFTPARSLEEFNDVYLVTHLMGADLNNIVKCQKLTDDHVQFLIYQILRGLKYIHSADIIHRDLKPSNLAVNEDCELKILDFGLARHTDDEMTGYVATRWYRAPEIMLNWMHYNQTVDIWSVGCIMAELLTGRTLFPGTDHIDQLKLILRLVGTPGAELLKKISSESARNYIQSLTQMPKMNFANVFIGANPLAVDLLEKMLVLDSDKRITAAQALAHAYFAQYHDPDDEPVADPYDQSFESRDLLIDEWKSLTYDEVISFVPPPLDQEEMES
CD38: ADP-ribosyl cyclase/cyclic ADP-ribose hydrolase 1 (CD38, Homo sapiens, UniProt P28907)
Chain of UniProt P28907 (whole entry, looked up): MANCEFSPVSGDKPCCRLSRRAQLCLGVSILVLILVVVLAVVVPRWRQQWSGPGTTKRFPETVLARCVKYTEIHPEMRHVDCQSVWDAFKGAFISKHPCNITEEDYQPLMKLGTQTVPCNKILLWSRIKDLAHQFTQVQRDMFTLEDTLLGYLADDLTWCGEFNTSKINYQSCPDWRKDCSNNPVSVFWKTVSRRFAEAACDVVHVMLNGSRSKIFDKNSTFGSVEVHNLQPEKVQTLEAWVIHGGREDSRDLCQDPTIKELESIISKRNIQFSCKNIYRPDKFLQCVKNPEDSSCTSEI
Chain of UniProt Q96GD4 (whole entry, looked up): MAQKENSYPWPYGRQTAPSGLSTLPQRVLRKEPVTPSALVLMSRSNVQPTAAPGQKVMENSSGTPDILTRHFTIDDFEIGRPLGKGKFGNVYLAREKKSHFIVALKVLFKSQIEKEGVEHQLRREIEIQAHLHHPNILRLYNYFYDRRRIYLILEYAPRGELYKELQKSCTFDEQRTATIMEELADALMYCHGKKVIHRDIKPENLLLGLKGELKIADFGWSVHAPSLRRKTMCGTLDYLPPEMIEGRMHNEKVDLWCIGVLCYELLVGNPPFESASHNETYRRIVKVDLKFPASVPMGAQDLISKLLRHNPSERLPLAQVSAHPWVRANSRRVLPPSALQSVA
Chain of UniProt P11309 (whole entry, looked up): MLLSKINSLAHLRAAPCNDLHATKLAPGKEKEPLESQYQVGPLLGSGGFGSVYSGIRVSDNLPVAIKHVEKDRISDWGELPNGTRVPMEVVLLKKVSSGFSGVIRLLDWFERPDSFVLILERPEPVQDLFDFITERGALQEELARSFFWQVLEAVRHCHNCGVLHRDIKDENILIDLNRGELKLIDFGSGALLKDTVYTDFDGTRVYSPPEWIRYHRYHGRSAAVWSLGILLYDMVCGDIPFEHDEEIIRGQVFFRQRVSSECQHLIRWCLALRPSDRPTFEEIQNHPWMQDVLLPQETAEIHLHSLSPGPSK
Chain of UniProt P08237 (whole entry, looked up): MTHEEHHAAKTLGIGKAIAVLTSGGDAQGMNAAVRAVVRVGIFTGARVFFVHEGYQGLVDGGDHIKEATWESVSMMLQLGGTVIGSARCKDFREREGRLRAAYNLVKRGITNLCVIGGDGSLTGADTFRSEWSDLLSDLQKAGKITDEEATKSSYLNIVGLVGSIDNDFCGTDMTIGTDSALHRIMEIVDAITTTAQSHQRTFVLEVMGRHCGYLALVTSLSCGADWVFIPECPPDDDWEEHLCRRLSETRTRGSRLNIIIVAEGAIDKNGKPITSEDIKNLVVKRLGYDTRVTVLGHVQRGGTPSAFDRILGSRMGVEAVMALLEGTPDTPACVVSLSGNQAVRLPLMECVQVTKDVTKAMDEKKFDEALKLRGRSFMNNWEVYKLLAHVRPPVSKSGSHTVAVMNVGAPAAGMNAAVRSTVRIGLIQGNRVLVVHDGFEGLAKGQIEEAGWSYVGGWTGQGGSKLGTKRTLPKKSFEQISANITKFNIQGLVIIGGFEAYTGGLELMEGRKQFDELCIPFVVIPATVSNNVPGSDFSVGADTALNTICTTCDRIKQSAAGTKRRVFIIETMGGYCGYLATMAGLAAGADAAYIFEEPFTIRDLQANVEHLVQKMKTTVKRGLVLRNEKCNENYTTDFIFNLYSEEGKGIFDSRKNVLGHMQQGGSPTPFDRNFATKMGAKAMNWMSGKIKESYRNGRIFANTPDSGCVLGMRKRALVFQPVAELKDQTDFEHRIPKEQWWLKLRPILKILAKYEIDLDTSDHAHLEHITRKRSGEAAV
Chain of UniProt Q8IUX4 (whole entry, looked up): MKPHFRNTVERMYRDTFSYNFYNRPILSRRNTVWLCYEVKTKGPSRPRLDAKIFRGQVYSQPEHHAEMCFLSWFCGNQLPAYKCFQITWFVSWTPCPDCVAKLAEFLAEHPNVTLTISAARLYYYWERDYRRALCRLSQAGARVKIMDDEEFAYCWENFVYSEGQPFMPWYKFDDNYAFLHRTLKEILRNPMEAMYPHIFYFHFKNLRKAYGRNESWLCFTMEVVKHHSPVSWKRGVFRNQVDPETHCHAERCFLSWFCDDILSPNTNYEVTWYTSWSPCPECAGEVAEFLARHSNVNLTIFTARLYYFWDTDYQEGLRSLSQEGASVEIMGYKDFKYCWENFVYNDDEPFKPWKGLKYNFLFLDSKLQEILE

| Structure (SMILES) | target | test | system | setting | how to read | remaining activity |
| --- | --- | --- | --- | --- | --- | --- |
| N=C(N)NCCC[C@@H]1NC(=O)[C@H](Cc2c[nH]c3ccccc23)NC(=O)[C@H](CCCNC(=N)N)NC(=O)[C@H](Cc2c[nH]c3ccccc23)NC(=O)[C@H](CCCNC(=N)N)NC(=O)[C@H](Cc2c[nH]c3ccccc23)NC(=O)[C@H](CCCNC(=N)N)NC(=O)[C@H](Cc2c[nH]c3ccccc23)NC(=O)[C@H](CCCNC(=N)N)NC(=O)[C@H](Cc2c[nH]c3ccccc23)NC(=O)[C@H](CCCNC(=N)N)NC(=O)[C@H](Cc2c[nH]c3ccccc23)NC(=O)[C@H](CCCNC(=N)N)NC(=O)[C@H](Cc2c[nH]c3ccccc23)NC(=O)[C@H](CCCNC(=N)N)NC(=O)[C@H](Cc2c[nH]c3ccccc23)NC(=O)[C@H](CCCNC(=N)N)NC(=O)[C@H](Cc2c[nH]c3ccccc23)NC1=O | MAPK14 | kinase activity, Reaction Biology radiometric |  | concentration not given, together with: ATP 200 µM | reference: DMSO | 61% |
| CC1(C)C2CC3C(c4ccccc4)c4c(O)c(C=O)c(O)c(C=O)c4OC3(C)C1C2 (single isomer, unassigned; (+)) | ATP-dependent 6-phosphofructokinase, muscle type (PFKM, Homo sapiens, UniProt P08237) |  | HEK-293T cell lysate | 100 µM, 2 h, 37 °C, together with: fructose 6-phosphate |  | 85% |
| CN(CC(=O)c1ccc2[nH]c(=O)[nH]c2c1)Cc1ccco1 | DNA dC->dU-editing enzyme APOBEC-3F (APOBEC3F, Homo sapiens, UniProt Q8IUX4) | enzyme activity, inhibitor, alkaline cleavage | purified enzyme from 293T cells | 700 µM |  | no effect |
| COc1cc(/C=C2/SC(=S)N(CC(=O)Nc3cccc(C(=O)O)c3)C2=O)cc(OC)c1OC | CD38 | cyclase activity, fluorometric |  | 50 µM, together with: NGD+ substrate | reference: untreated | 38.4 ± 25% |
| COc1ccc(NC(=O)Nc2ccc3c(c2)C(=O)N(C(C)CO)CC(C)C(CN(C)Cc2ccc4c(c2)OCO4)O3)cc1 (stereo not drawn) | Aurora kinase B (AURKB, Homo sapiens, UniProt Q96GD4) | kinase activity |  | 0.03 µM | reference: control | < 25% |
| COc1ccc(-c2cc(/C=C3/SC(=S)NC3=O)no2)cc1 | CD38 | enzyme activity, inhibitor, fluorescence |  | 50 µM |  | 17.6% |
| CC(=O)N[C@@H](Cc1c[nH]c2ccccc12)C(=O)N[C@@H](Cc1c[nH]c2ccccc12)C(=O)N[C@@H](Cc1c[nH]c2ccccc12)C(=O)N[C@@H](Cc1c[nH]c2ccccc12)C(=O)N[C@@H](Cc1c[nH]c2ccccc12)C(=O)N[C@@H](Cc1c[nH]c2ccccc12)C(=O)N[C@@H](Cc1c[nH]c2ccccc12)C(=O)NCCCC[C@@H]1NC(=O)[C@H](CCCNC(=N)N)NC(=O)[C@H](CCCNC(=N)N)NC(=O)[C@H](CCCNC(=N)N)NC(=O)[C@H](CCCNC(=N)N)NC(=O)[C@H](CCCNC(=N)N)NC1=O | MAPK14 | kinase activity, Reaction Biology radiometric |  | concentration not given, together with: ATP 200 µM | reference: DMSO | 64.2% |
| Cc1cc(O)c(C(=O)/C=C/c2ccc(Cl)cc2)c(=O)o1 | CD38 | hydrolase activity, fluorometric |  | 50 µM, together with: ε-NAD+ substrate | reference: untreated | 87.3 ± 0.3% |
| CC1(C)CCN(Cc2ccc(C(=O)NC[C@]3(O)CCCN(c4cc(NCc5ccccc5)ncn4)C3)c(O)c2)CC1 | Serine/threonine-protein kinase pim-1 (PIM1, Homo sapiens, UniProt P11309) | radiometric |  | 10 µM, together with: 10 µM ATP |  | 95% |

Excerpt of the above:
| Structure (SMILES) | target | test | system | setting | how to read | remaining activity |
| --- | --- | --- | --- | --- | --- | --- |
| CC(=O)N[C@@H](Cc1c[nH]c2ccccc12)C(=O)N[C@@H](Cc1c[nH]c2ccccc12)C(=O)N[C@@H](Cc1c[nH]c2ccccc12)C(=O)N[C@@H](Cc1c[nH]c2ccccc12)C(=O)N[C@@H](Cc1c[nH]c2ccccc12)C(=O)N[C@@H](Cc1c[nH]c2ccccc12)C(=O)N[C@@H](Cc1c[nH]c2ccccc12)C(=O)NCCCC[C@@H]1NC(=O)[C@H](CCCNC(=N)N)NC(=O)[C@H](CCCNC(=N)N)NC(=O)[C@H](CCCNC(=N)N)NC(=O)[C@H](CCCNC(=N)N)NC(=O)[C@H](CCCNC(=N)N)NC1=O | MAPK14 | kinase activity, Reaction Biology radiometric |  | concentration not given, together with: ATP 200 µM | reference: DMSO | 64.2% |
